# Published values gathered from unrelated publications.
# Lines come from different studies, so protocols differ. Several values in a cell are separate wells, animals, samples, runs or records.
# CYP2D6: Cytochrome P450 2D6 (CYP2D6, Homo sapiens, UniProt P10635)
# Sequence of UniProt P10635 (whole entry, unmodified, looked up): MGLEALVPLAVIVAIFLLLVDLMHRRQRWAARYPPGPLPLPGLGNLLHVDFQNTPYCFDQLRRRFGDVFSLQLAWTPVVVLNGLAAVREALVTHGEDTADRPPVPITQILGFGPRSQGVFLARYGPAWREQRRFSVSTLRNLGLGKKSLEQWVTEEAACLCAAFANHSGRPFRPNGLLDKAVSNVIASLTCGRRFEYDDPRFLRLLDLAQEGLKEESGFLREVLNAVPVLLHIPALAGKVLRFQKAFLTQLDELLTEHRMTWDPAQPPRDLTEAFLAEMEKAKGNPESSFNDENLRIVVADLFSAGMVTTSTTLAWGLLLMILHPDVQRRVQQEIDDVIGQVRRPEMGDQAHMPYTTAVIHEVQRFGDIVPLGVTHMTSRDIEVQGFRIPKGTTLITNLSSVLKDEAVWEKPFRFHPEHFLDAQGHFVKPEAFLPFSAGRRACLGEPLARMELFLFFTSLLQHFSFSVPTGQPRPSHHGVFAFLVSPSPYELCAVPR
Compound,target,test,system,setting,IC50
Cc1nc(-c2cnc(NC(C)C)n(C)c2=O)ccc1Oc1ccnc(-c2cnn(C)c2)c1,CYP2D6,inhibitor,,"30 min, preincubation without NADPH",> 100 µM
COc1ccc2[nH]c([S+]([O-])Cc3ncc(C)c(OC)c3C)nc2c1 (stereo not drawn),CYP2D6,inhibitor,,,191 µM
CCOc1cc(-c2nncn2C)ccc1Nc1ncc2cc(C)nc(NCC(C)(C)C)c2n1,CYP2D6,"enzyme activity, inhibitor",,,10 to 50 µM
N#C[C@H](C[C@@H]1CCCNC1=O)NC(=O)[C@H](CC1CC1)NC(=O)c1cc2cccc(Cl)c2[nH]1,CYP2D6,"enzyme activity, time-dependent inhibitor",human liver microsomes,"30 min NADPH preincubation, together with: dextromethorphan O-demethylation",46.2 µM
CC(C)(C)S(=O)(=O)c1cc2c(Nc3ccc4scnc4c3)ncnc2cc1OCCOP(=O)(O)O,CYP2D6,inhibitor,human liver microsomes,"30 min, pH 7.4, together with: dextromethorphan",78.6 µM
COc1ccc(Cc2nc(NC(=O)C34CC5CC(CC(C5)C3)C4)n(C)c2Cc2ccc(OC)c(OC)c2)cc1,CYP2D6,,,,> 200 µM
CCOC(=O)[C@@]12C[C@@H]1[C@@H](n1ccc3c(NC)nc(C#Cc4ccc(Cl)s4)nc31)[C@H](O)[C@@H]2O,CYP2D6,"enzyme activity, inhibitor",human liver microsomes,"10 min, pH 7.4, together with: dextromethorphan",14.1 µM
CCC(C)(C)C(=O)O[C@H]1C[C@@H](C)C=C2C=C[C@H](C)[C@H](CC[C@@H](O)C[C@@H](O)CC(=O)O)[C@H]21,CYP2D6,inhibitor,,together with: substrate AMMC,> 100 µM
O=C(NCCN1CCCC1)c1cc(-c2ccc(CN3CCOCC3)cc2)nc2ccc(F)cc12,CYP2D6,"enzyme activity, inhibitor",human liver microsomes,together with: bufuralol,73 µM and 94 µM and 65 µM
Cc1cc(O[C@@H]2CCOC2)cc(C(=O)Nc2ccc(F)cn2)n1,CYP2D6,inhibitor,,,> 30 µM
O=C(O)/C=C/c1ccccc1,CYP2D6,"enzyme activity, inhibitor",,,> 337 µM
CN(C/C=C/C#CC(C)(C)C)Cc1cccc2ccccc12,"Cytochrome P450 2D6 (CYP2D6, Homo sapiens, UniProt P10635, P34S/S486T)",,,pH 7.4,0.47 µM
